Assay results collected from several papers.
Each numbered part is a random draw from the data of one study; scales do not carry over between parts. Changes are numbered by the printed parent chain.

Set 1 — technique: protein-binding microarray; molecule type: double-stranded DNA, one strand shown; matrix: in vitro; tested at: 0.8 µM; notes: whole 60-bp probe, no competitor; direction: higher = stronger binding; constant ends, left off below: … GTCTTGATTCGCTTGACGCTGCTG
Target: Centromere-binding protein 1, full length, N-terminal tag (CBF1, Saccharomyces cerevisiae, UniProt P17106, residues 1-351)
Sequence of UniProt P17106 (whole entry, looked up): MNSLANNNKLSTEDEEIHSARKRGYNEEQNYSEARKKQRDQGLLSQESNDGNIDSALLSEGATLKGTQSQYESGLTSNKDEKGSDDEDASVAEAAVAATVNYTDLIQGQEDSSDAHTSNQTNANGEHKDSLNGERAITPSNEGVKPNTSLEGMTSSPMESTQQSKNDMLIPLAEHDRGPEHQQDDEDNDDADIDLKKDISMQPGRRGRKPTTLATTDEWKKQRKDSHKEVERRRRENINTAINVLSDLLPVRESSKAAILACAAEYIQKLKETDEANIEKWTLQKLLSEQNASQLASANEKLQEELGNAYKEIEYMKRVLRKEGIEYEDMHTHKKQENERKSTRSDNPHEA
`GAACCTCCCGAACAACGTGAAATCTTTTTGCTTTAG` has a fluorescence intensity of 607 a.u.
`CTATACTTATGATATCACGACAGCAAATACTAATTC` has a fluorescence intensity of 667 a.u.
`GAATCAAGGAAAACTCGTGACATACAAATGCAATAG` has a fluorescence intensity of 2480 a.u.
`GAACCGGATCGTAGTCACATGATCAAATAAATTTAG` gave a fluorescence intensity of 14400 a.u.
`GAACGATACAATACGCACGAGGATAATAAGCCCTAG` gave a fluorescence intensity of 725 a.u.
The fluorescence intensity of `CTAGTCCCTCAATTACACGTTTGTTTGCTTGCTTTC` is reported as 493 a.u.
The fluorescence intensity of `CTATATAATCAGCATCATGTTTTTTAAGCGAGATTC` is reported as 573 a.u.

Set 2 — technique: universal PBM; molecule type: double-stranded DNA, one strand shown; matrix: in vitro; tested at: not given; direction: higher = stronger binding
Target: Sal-like protein 4, full length isoform B (SALL4, Homo sapiens, UniProt Q9UJQ4-2, residues 1-616)
Notes: 8-mer, flanks averaged, mean of replicates
With `CCAATGCA` the E-score was -0.0296.
With `GCTACTCC` the E-score was -0.17.
`AGGTGCCA` gave an E-score of -0.141.
For `CAAATGGA`, the E-score was 0.00184.
With `GCGCCTGA` the E-score was -0.235.
For `AACAATCT`, the E-score was 0.206.

Set 3 — target: CCNA1, cyclin fold, Cln2 fusion (human); technique: yeast growth competition, sequencing; matrix: yeast; notes: weak parent motif; reference: not given; direction: higher = stronger binding
Starting sequence: GMNC docking peptide (human); KNAKRNLSSEFAN
`KNAKLNLSSEFAN [R5L]` — result for “normalised enrichment score”: 0.0415.
`KNAKNNLSSEFAN [R5N]`: “normalised enrichment score” 0.269.
`KNAKRNLRSEFAN [S8R]` — result for “normalised enrichment score”: 0.215.
`KNAKRGLSSEFAN [N6G]` — result for “normalised enrichment score”: 0.212.
Under “normalised enrichment score”, `KNAKRNPSSEFAN [L7P]` is recorded as -0.0753.
`KNAKRNLSCEFAN [S9C]`: “normalised enrichment score” 0.643.
`KNAKRNSSSEFAN [L7S]` — result for “normalised enrichment score”: -0.271.
`KNAKRSLSSEFAN [N6S]` — result for “normalised enrichment score”: 0.339.

Further values, each from its own experiment
The fold induction of `PhoQ, residues 284 288 289 292 302 303 SNGLAW` is reported as 20.9 (PhoP, residues 12 14 15 18 19 NYFRM (Escherichia coli, UniProt P23836); Sort-seq, refers to: YFP reporter; E. coli; PhoQ-PhoP variant library, with: 10 µM Mg2+; reference: high Mg2+ state, higher = stronger signaling).

Some of these lines once more (set 3):
Under “normalised enrichment score”, `KNAKRNPSSEFAN [L7P]` is recorded as -0.0753.
`KNAKRGLSSEFAN [N6G]` — result for “normalised enrichment score”: 0.212.
`KNAKNNLSSEFAN [R5N]`: “normalised enrichment score” 0.269.
